Experimental data of several laboratories.
Numbered parts are unrelated; each lists some results of a single study. Positions count from the first letter of the parent shown.

Block 1 — target: CCNB1, cyclin fold, Cln2 fusion (human); method: yeast growth competition, sequencing; matrix: yeast; setting: weak parent motif; reference: not given; direction: higher = stronger binding
Parent: GMNC docking peptide (human); KNAKRNLSSEFAN
Variant | normalised enrichment score
E10A | 0.0142
R5L | -0.0534
F11Q | 0.115
A12P | 0.246
S9C | 0.0353
R5W | 0.266
S9P | 0.268
S8M | 0.769
K4S | 0.212
L7Y | 0.13
K4N | 0.0982
L7W | 0.298
S9F | 0.101
R5V | -0.363
S8I | -0.0107
L7I | 0.372
A3N | 0.285
S8G | 0.466
N6P | 0.18
N2C | 0.00476
S8N | 0.713
N6R | 0.277
L7N | 0.792
E10M | -0.0746
E10N | -0.0618

Block 2 — method: DHFR PCA, dose-response; matrix: yeast; setting: Hill fit, mean, not affinity; with: (+)-ABA, dose series; direction: lower = more sensitive
Target: ABI1, truncated, D143A, DHFR fusion (Arabidopsis thaliana, UniProt P49597)
Parent: PYL1, truncated, DHFR fusion (Arabidopsis thaliana, UniProt Q8VZS8); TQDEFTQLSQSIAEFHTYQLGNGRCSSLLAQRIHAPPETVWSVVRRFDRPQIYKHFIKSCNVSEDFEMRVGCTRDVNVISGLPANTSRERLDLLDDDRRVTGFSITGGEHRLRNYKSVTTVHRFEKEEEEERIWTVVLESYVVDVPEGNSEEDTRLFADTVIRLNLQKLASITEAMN
Variant | ABA EC50
Y18T | 10.7 µM
G108Q | 504 µM
E14H | 11.6 µM
E147D | 3.6 µM
Q167W | 19.1 µM
W134V | 2.1 µM
R45M | 286 µM
A30I | 1.89 µM
E147G | 8.33 µM
A170E | 50.1 µM
R49N | 3.68 µM
R46Q | 4.04 µM
V142Q | 1.53 µM
V136G | 648 µM
E128L | 3.68 µM
Y141W | 90.1 µM
P37Y | 162 µM
A13Q | 4.24 µM
W134S | 1.34 µM
I12F | 77.4 µM
L138V | 16.4 µM
K58W | 45.8 µM
C25S | 18.9 µM
D48Q | 82.8 µM

Block 3 — method: protein binding microarray; molecule type: double-stranded DNA, one strand shown; matrix: in vitro; tested at: not given; reference: not given; direction: higher = stronger binding
Target: Histone acetyltransferase KAT6A, winged helix 1, GST fusion (KAT6A, Homo sapiens, UniProt Q92794, residues 1-85)
Setting: 8-mer, flanks averaged, mean of 2 arrays, mostly near background
Construct (chain): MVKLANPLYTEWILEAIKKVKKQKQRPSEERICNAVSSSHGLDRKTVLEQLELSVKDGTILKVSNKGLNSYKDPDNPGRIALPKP
Sequence | E-score
AACTGGAT | -0.298
ACCGACAA | 0.0287
TAATCGTA | -0.124
ATCCATCA | -0.0775
AACTTTCC | -0.0987
ATGGGCGG | 0.157
ATTAAATC | -0.0561
GACGGGAA | 0.327
ATCTATAG | -0.0619
ACGCCCGA | 0.261
CCCCAGCG | 0.0825
AGTGAAGA | -0.258
AATTGCGT | 0.186
AGAACCCT | -0.0551
AAACGGCC | 0.333
ACCAGTAT | -0.12
CTAACGAC | -0.105
AACGTATG | -0.172
CCGATAGA | 0.0295
AAGTGTGA | -0.22
ATGTAAAT | -0.0656
CTCGCAGA | -0.152
AAAACAAG | -0.0896

Block 4 — method: competition protein-binding microarray; molecule type: double-stranded DNA, one strand shown; matrix: in vitro; tested at: 2 µM; with: Pho4 competitor, 0.05 µM; direction: higher = stronger binding
Target: Centromere-binding protein 1, full length, His-tagged (CBF1, Saccharomyces cerevisiae, UniProt P17106, residues 1-351)
UniProt P17106, sequence (whole entry, looked up): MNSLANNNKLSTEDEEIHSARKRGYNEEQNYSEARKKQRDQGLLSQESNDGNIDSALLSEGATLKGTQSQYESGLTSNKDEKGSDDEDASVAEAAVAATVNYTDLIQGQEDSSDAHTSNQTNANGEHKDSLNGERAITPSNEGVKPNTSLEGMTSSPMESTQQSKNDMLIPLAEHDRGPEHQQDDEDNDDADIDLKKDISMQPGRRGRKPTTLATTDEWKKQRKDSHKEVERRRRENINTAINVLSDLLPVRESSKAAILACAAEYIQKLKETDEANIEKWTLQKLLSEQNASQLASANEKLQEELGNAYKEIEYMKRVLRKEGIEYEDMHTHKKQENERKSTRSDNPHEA
Setting: whole 60-bp probe, lowest competitor level
Sequence | fluorescence intensity
CATACCCAACCTTGCCTAGTGGGTGAAGATATTTGTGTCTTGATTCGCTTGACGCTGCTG | 52 a.u.
CTAACGTTGGAGGATCCCGTGACGGTGGAGTATCTCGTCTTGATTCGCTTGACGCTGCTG | 439 a.u.
GGGCTCTTTGTTTAGCATGTGCCTCATCTCTTTTTCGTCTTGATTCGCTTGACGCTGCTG | 169 a.u.
TGCGTATTCGCCCGACACGTGATGGGCGCAGATTGGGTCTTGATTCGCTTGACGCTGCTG | 2960 a.u.
CGTCAGTTGGAGCACCATGTGTCTTCTTGAAAGGATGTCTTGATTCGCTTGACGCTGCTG | 105 a.u.
CTTCTGTAAATTTTTCACGTGGTATGACGCGCCCCGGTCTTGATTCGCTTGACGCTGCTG | 1140 a.u.
TGCGCAACAACTTGACAGGTGGGTGTATGTCTAGAAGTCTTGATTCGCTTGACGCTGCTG | 76.2 a.u.
TCGTCGGTTTATTGTCTCGTGGTGATTTGCGTTAAAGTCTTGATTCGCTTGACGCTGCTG | 151 a.u.
CTTTCCCGATCTTGACCAGTGGGTGTAGCACATTTGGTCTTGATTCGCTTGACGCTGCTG | 79 a.u.
AAATTACTAAGTTGTTCGGTGGGTGACGCCGTATGAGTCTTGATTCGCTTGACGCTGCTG | 53.2 a.u.
AGTGCAGTGGAAAAGCACGCTTACTCTACGGATGAGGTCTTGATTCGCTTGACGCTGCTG | 58.3 a.u.
TGGAAATAACACTTCCACGTGGAACTATTAAATTGGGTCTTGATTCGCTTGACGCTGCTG | 1070 a.u.
TTGGTCTACCAAATGCACCTGATTTACAAGCGGCTAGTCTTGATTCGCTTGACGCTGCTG | 159 a.u.
TCTCTCCATTCGGTTGATGTGATGCTTTGCTGTAAAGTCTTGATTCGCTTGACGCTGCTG | 58.8 a.u.
AAGAGAAAAAGTACAAACGTGTAGAGCAGGATGATCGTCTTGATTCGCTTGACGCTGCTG | 260 a.u.
GTCTTGTCTCATTTTCACGTGGGGTTCCCCACTTCAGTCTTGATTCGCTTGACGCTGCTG | 521 a.u.
TCAAAAAAGAAACTACACGTGCTTTTAATATACCGAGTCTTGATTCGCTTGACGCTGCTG | 2310 a.u.
GCAGAGTGATAGCGTCACAGGAAATAGCGCAACCTTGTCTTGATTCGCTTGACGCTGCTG | 66.9 a.u.
GTCTTCTCCAAAACATTCGTGACGAATAGTCCTGCTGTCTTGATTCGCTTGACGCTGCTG | 83.5 a.u.
AGATCAATTATCCGAAGCGGGTCCCAACCCGGAAATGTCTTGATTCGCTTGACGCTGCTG | 53.9 a.u.
GTCTTGTCTCATTTTCACGTGGATTTCCCCACTTCAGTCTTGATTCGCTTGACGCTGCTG | 417 a.u.
ACCGTATATATACTACACGCACACACACCAACACAAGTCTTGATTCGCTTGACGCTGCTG | 90.4 a.u.
CGGGGTTAAGTTTGCTTGGTGGGTGGCTTGCAGCAGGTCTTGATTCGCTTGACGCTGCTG | 63.9 a.u.
CGGGGTTAAGTTTGTCACGACACTTGCTTGCAGCAGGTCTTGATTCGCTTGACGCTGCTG | 197 a.u.
CTTTCCCGATCTTGTCGTGTGGGTGTAGCACATTTGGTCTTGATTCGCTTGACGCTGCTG | 71.3 a.u.

Block 5 — method: RNA Bind-n-Seq; molecule type: RNA; matrix: in vitro; tested at: not given; setting: RNA with constant flanks, ends assumed; reference: input RNA pool; direction: higher = stronger binding
Target: RING finger protein unkempt homolog, zinc fingers 1-6, GST-SBP tag (UNK, Homo sapiens, UniProt Q9C0B0, residues 30-357)
UniProt Q9C0B0, sequence (30-357, looked up): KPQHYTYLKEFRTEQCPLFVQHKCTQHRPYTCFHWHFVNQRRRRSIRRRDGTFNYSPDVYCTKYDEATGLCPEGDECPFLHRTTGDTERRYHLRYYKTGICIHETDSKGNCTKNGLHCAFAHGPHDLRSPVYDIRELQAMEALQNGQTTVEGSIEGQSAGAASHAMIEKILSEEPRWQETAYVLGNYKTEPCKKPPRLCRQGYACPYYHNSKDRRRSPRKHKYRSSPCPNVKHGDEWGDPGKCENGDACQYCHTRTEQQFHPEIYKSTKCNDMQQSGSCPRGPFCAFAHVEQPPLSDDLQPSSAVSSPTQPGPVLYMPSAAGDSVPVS
Sequence | bound/input enrichment [ratio]
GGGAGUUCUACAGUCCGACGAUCAGCCAGUCCCUAGGGCUCAGGGAGCAGGAGCUUCAGGUUGUCCGAGCAUCUGGGAAGUAAGUGGCCGGGGUGACAGGAAGCUAGGAGUACAGGCAUCCAUCUGUGGUGGGGAAACAGCUGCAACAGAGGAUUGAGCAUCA | 0.189
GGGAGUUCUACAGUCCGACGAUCUCCAGUCUUACACUUAUGGUUGGCCUCAAAUCUAUUGCAUUUAUGAUAAUGUAUUAUAUCCCGUUGAGUUUAAUAUUUUUUUAUUAGCCUGUAAAUAAAGAUGGCAUCUUCUACAUUAAACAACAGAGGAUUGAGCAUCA | 1.88
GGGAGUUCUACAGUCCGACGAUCGACUCUCAGUUUAACAUUAUGUCUGUUAAAACUCUGACAAGCAUUCCGAUUUUGUUAUUUAUCCGCAGUGUCAAGUCUUGUGACUAUUAAAAGAACCACUGUAAUUCAAAACAUCAGCGUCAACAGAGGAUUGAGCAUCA | 0.167
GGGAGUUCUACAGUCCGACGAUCUCUGUCAGAUUGCUUUCAGGGAUCAGGGAAGGUCUGUAGGCAGAAGGUAUGAUGGUGCCCCCGCAGAGUAUGAAACCUUACUCAUUACAGUAAUUAAUUAGGGAAGCAGCCGCAGGCCGUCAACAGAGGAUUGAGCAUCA | 1.18
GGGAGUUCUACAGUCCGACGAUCGAUAUACUUACGUAAUGGAGCUGUCAAAGCCGAGAGACCAGCCUGCGUCCUAAAGUUUGCUUCCGAGAGUAGGAAUGUCGGGGUUUCCAGUUAGAAAACCUUUAUUUUUGGAAACGGAAUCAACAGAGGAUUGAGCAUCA | 3.84
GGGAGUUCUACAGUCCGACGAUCUAGAAUCUUGUUUUUAGAUUGAAUUUGAAUCUAUAUUUAUUGUCUUUUUGUAUCUUGGAAAUCCGAGAUUUGUUAUAGAUUUACCUGUAUUUGUCAAGAUCAUAGCUGGUUUUAAAAAUGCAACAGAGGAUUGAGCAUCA | 1.51
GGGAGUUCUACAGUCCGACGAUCGCAGCUAUUCCACAUGCCGCAGAAGAUAUUCAAGGAGAUGACAGGUGGAUGUCUCAGCAUAACCGGUUUGUUCUGGACUGUAAAGACAAAGAACCAGAUGUGCUGUUUGUGGGGGACUCCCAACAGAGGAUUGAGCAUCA | 0.174
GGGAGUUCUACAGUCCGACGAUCGGAAUUCAACCUGUAAUAGAUAAAUUAAGGGAACACGAAAAUUCAACAUUAGAUAGGCAUUCCGACUUUUUUGAAAUGCUCCGAAAUGAAGAUGAACUAGAAUUUGCCAAAAGAUUUGAACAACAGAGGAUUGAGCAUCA | 1.59
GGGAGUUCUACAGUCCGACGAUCGACAAGUUUGAAAAACUUGUACAGACUGUGAGAGAUUAUCAUGCAACUUGGAAAACUGUCCGUAAUAAAUUAAAAAAUCAUCCUGAUUAUGAAGAAUAUAUCAACUUAGAGGGAACAAGACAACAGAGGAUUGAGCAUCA | 1.52
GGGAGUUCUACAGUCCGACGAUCGCUACUUCUGGUGAUAUUUGGCCUGGCCUUUCAGCUUAUGAUAAUAGUCCAAGGUCACCUCACCGUCCUUCACCUAUUGCUACACCACCCAGUCAGAGUUCAUCAUGCUCAGAUGCCCCCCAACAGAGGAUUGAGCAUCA | 0.26
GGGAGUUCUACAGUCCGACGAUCCUAGCCAAACACCCAUGCAAUGCUUCAAUGGAAUGCGACAAAUGUCAGAGGCGGCAGAAGAACCGAGCAUUUUGCUAUUUUUGUAAUUCUGUUCAGAAGUUACCAAUUUGUGCACAGUGUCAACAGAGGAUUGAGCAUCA | 0.175
